Experimental data gathered from unrelated publications.
Parts stem from different laboratories: compare values within a part only. Positions count from the first letter of the parent shown.

Block 1
Target: Prothrombin, mature alpha-thrombin (F2, Homo sapiens, UniProt P00734)
Technique: aptamer microarray, sandwich
Form: DNA with 2'F-ANA
Medium: in vitro
Tested at: 200 nM
Notes: whole 15-mer aptamer, many near background
With: Cy3 exosite-II aptamer, 400 nM
Direction: higher = stronger binding
Sequence: GGTTGGTGTGGTTGG
`2'F-ANA at 5 6 8 9 10 11 14` — result for “mean fluorescence intensity”: 48.2 a.u.
Under “mean fluorescence intensity”, `2'F-ANA at 4 6 11 14 15` is recorded as 76.2 a.u.
`2'F-ANA at 1 2 6 9 10 12 13 15` — result for “mean fluorescence intensity”: 67.2 a.u.
Under “mean fluorescence intensity”, `2'F-ANA at 2 3 4 10 11 13 15` is recorded as 215 a.u.
For `2'F-ANA at 2 3 5 9 10 11 13`, “mean fluorescence intensity” read 54.1 a.u.
For `2'F-ANA at 1 4 5 6 7 9 10 11 13 14 15`, “mean fluorescence intensity” read 71.1 a.u.
`2'F-ANA at 1 5 7 8 9 14`: “mean fluorescence intensity” 46.2 a.u.
`2'F-ANA at 1 3 4 5 8 10 12 14 15`: “mean fluorescence intensity” 56.4 a.u.
Under “mean fluorescence intensity”, `2'F-ANA at 7 9 10 12 13` is recorded as 223 a.u.
For `2'F-ANA at 2 4 6 7 9 10 11 15`, “mean fluorescence intensity” read 72.6 a.u.
For `2'F-ANA at 2 7 8 9 11 14 15`, “mean fluorescence intensity” read 142 a.u.
`2'F-ANA at 2 3 4 5 7 8 10 11 12 13` — result for “mean fluorescence intensity”: 52.1 a.u.
`2'F-ANA at 3 4 6 11 13 15` — result for “mean fluorescence intensity”: 388 a.u.
For `2'F-ANA at 1 2 5 11 12`, “mean fluorescence intensity” read 87.3 a.u.
Under “mean fluorescence intensity”, `2'F-ANA at 1 2 3 4 7 8 9 13 14 15` is recorded as 61.1 a.u.
`2'F-ANA at 4 6 9 14 15` — result for “mean fluorescence intensity”: 74.8 a.u.
`2'F-ANA at 1 4 5 8 12`: “mean fluorescence intensity” 123 a.u.
`2'F-ANA at 1 5 11 12 14 15`: “mean fluorescence intensity” 88.3 a.u.
`2'F-ANA at 1 3 4 6 9 11` — result for “mean fluorescence intensity”: 176 a.u.
Under “mean fluorescence intensity”, `2'F-ANA at 3 7 8 11 13` is recorded as 1100 a.u.
Under “mean fluorescence intensity”, `2'F-ANA at 1 5 7 8 9 11 13 14` is recorded as 78.9 a.u.
`2'F-ANA at 1 2 5 6 7 10 11 15`: “mean fluorescence intensity” 49.5 a.u.

Block 2
Target: Ras GTPase-activating protein-binding protein 1, C-terminal RGG region (G3BP1, Homo sapiens, UniProt Q13283)
Sequence of UniProt Q13283 (whole entry, looked up): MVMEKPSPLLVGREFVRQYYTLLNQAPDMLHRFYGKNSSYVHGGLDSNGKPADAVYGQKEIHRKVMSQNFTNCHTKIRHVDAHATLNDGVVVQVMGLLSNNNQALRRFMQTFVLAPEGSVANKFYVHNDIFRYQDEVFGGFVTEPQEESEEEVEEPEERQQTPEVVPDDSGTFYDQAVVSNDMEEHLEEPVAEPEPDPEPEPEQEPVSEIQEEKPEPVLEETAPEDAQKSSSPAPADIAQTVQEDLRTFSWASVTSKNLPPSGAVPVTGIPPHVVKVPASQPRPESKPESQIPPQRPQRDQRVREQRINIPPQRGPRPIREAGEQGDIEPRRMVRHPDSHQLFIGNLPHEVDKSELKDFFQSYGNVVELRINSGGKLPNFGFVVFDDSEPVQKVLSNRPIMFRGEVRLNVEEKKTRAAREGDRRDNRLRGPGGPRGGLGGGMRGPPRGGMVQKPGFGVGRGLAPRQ
Technique: RNA Bind-n-Seq
Form: RNA
Medium: in vitro
Tested at: 1 µM
Notes: whole 134-nt RNA, ends assumed
With: 150 mM KCl
Reference: input library
Direction: higher = stronger binding
`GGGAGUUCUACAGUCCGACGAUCUAUGGACAAGCAUAAUGGAACAGACAGGUUUGUGAACCAGCAGUUUCAAGAGGAAAAGUUAAAUAAAUUGCAGAAGUUACUUAUUCUUUUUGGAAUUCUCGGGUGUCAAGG` has a log2 enrichment of -1.87.
With `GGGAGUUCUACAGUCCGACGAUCGUCCUGUGCUACACAUCGUAUGUACCGAAUCGGGGUUUUUGGGGUUUUUGGGGUGGGGAAAGUAUUAUGUUACGCCGUUCGGAUCUGCACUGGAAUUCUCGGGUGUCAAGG` the log2 enrichment was 1.13.
For `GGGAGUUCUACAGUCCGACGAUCUGGGAGGUGGAUUUUGUUUAUUUUUUUAACUCAUUUCCAGGGGUGGGAAUUUUUUUUUAAUAUGUGUCAUGAAUAAAGUUGUUUUUGAAAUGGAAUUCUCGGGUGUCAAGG`, the log2 enrichment was 3.57.
`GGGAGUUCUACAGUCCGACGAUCAAGUCCUGUGCUACACAUCGUAUGUACCGAAUCGGAAAAAGGUUUUUGGUUUUUGGAAAGUAUUAUGUUACGCCGUUCGGAUCUGCACUUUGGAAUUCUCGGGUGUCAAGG` gave a log2 enrichment of -2.17.
The log2 enrichment of `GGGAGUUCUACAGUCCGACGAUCCACAGACAACACGCACCCACACAGACACAGAGGGAAGGGGUUGGGAUGGGGACAGGGUGUACAGCAGGGCGGGGUAGGACCCCAGCCCCUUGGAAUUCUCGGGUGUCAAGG` is reported as -0.653.
With `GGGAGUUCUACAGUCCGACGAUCAAGUCCUGUGCUACACAUCGUAUGUACCGAAUCGGGCCCGGGGCCCGGGGCCCGGGGAAAGUAUUAUGUUACGCCGUUCGGAUCUGCACUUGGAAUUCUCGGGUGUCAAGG` the log2 enrichment was -2.12.
With `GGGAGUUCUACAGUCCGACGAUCCUGUGCUACACAUCGUAUGUACCGAAUCGGGGAAAAAAAGGGGUUUGGGGAAAAAAAGGGGAAAGUAUUAUGUUACGCCGUUCGGAUCUGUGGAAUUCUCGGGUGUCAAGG` the log2 enrichment was 0.0246.
`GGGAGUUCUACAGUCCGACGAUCGCAGGAAGUAAAAACAAAUGGAAUUGCUUCGGAUAGUGGCAGGGGUGGGGGUUGCUAAGGAAAGGGUGGGAUGGGAGUGGGUAAAGAGUUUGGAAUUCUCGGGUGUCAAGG` has a log2 enrichment of 1.9.
`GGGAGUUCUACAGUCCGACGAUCUGGCCCUGGUGGCAUGCGGCGAGGAAGAGGUGGCCUCAUGGAUCGUGGUGGUCCCGGUGGAAUGUUCAGAGGUGGCCGUGGUGGAGACAGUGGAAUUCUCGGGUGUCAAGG` gave a log2 enrichment of 1.89.

Block 3
Target: CCND1, cyclin fold, Cln2 fusion (human)
Technique: yeast growth competition, sequencing
Medium: yeast
Notes: strong parent motif
Reference: not given
Direction: higher = stronger binding
Starting sequence: RBL2 docking peptide (human); STTRRRLFVENDS
`D12V`: “normalised enrichment score” 0.361.
`V9N` — result for “normalised enrichment score”: 1.65.
`V9A` — result for “normalised enrichment score”: 1.39.
For `S13T`, “normalised enrichment score” read 0.478.
Under “normalised enrichment score”, `T3M` is recorded as -0.448.
`V9S`: “normalised enrichment score” 1.61.
Under “normalised enrichment score”, `D12K` is recorded as 0.406.
For `V9R`, “normalised enrichment score” read 0.326.
`L7V` — result for “normalised enrichment score”: -0.297.
Under “normalised enrichment score”, `R5G` is recorded as 0.0473.
For `F8S`, “normalised enrichment score” read 0.758.
For `F8M`, “normalised enrichment score” read -0.394.
`R4N` — result for “normalised enrichment score”: 0.188.
For `S13P`, “normalised enrichment score” read 1.17.
`T2V`: “normalised enrichment score” 0.797.
For `R6K`, “normalised enrichment score” read 1.44.
For `D12E`, “normalised enrichment score” read 0.258.
For `R5L`, “normalised enrichment score” read 0.748.

Block 4
Target: RNA binding protein fox-1 homolog 2, RRM domain, GST-SBP tag (RBFOX2, Homo sapiens, UniProt O43251-10, residues 100-194)
Technique: RNA Bind-n-Seq
Form: RNA
Medium: in vitro
Tested at: 365 nM
Notes: natural RNA segment, single round, ends assumed
Reference: no-protein control
Direction: higher = stronger binding
Residues (chain): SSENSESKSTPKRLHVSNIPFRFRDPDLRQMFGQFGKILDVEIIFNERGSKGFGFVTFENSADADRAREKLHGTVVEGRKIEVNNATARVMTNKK
`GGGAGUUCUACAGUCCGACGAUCCUCAUUUAGCUCUGUAGCUUUCGGCUCAAUUAAUGUACUUCCUUAUAGUGAAUGAGAAGUGGUAGUCAUUUGUAAGGAUAGCACACAUUGAAUUUGGAAUUUAUUUCUUCUGGAAUUCUCGGGUGCCAA`: “RBNS enrichment (R)” 1.03.
For `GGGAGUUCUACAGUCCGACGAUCCCACCUUAGUGCCAGGGCCGAGGGCUGGUCUGCAUGCUGGAAGAGGUUGAGAGUUUUGGAAUUGAUUCCAUGCUAAAUGUCAGUUACCAGUUUGGAUUGAUGAAAGUGAUUGGAAUUCUCGGGUGCCAA`, “RBNS enrichment (R)” read 5.13.
For `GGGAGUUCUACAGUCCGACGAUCUGAAUAACUUCCCAGACACUUAUCUCCAGGGCAGGGUGCCUUCCAGUAGCCAAGGGAAGCCUCCAGAGAGCACAGAUGUGAACCCUCAGCAGCAGGCAUCACCCCCCAGUUGGAAUUCUCGGGUGCCAA`, “RBNS enrichment (R)” read 0.501.
For `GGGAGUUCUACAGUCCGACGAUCUUUUUAAACAAGAAAAGCUGUGCUCUUUUAUGUGAUGCCUUUUUUAUUUAUUCAGGCUAUACCUACAAUAUGUGAAUCAAACUGUUUAAUGAAUCCUGGGACAUACUGAUUGGAAUUCUCGGGUGCCAA`, “RBNS enrichment (R)” read 0.409.
`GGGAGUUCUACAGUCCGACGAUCUAAUUAUGAUUUUCUCUUCAUACGAGCUGUUAGAAAGCUCAGCAUUAAAUUUGUGGCUCACCUCUAGCAAAUAUAUAACACUUAAUGAUGUGACUGUCCUGAUUCUAAAAUGGAAUUCUCGGGUGCCAA`: “RBNS enrichment (R)” 0.703.
`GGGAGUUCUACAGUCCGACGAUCUGGGAGCUGUUCCUGGACAGCCUUCUACUGCCUGGGAAGUGAUGGAACAGGAACUCAGGGUGCCCUUACCCCCUCCCCAGACCUGUUCCCUUUCUUUGACUGACAGAGCAUGGAAUUCUCGGGUGCCAA`: “RBNS enrichment (R)” 0.736.
Under “RBNS enrichment (R)”, `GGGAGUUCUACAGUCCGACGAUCCCUUCUCCCUGGGUGUGCUUAAGGGGGCUCCUUGGGCCCGCCUCCCCAGGAGGUAGAAAAUGAGUGGCAGGCUAGAGAUUUCACCCAUUUUGUGGGCUGGAGUUACCAGUUGGAAUUCUCGGGUGCCAA` is recorded as 0.296.
For `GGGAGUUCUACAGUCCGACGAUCCAACGCCUACGUAAUUCGGAUUGAAGCUCCCCAAGCAAGGAUAUGGACAGCAAUGUGAGCAGGCAGUUGAACAGGAAGAGGACAUUUUCUUUGUGGCUUUGGACCUGGACUGGAAUUCUCGGGUGCCAA`, “RBNS enrichment (R)” read 1.11.

Further values, each from its own experiment
`PhoQ, residues 284 288 289 292 302 303 SMYGEC` has a fold induction of 4.32 (PhoP, residues 12 14 15 18 19 NHTVL (Escherichia coli, UniProt P23836); Sort-seq, item: YFP reporter; E. coli; PhoQ-PhoP variant library, with: 10 µM Mg2+; reference: high Mg2+ state, higher = stronger signaling).

Some of these lines once more (block 4):
For `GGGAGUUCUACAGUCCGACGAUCCCACCUUAGUGCCAGGGCCGAGGGCUGGUCUGCAUGCUGGAAGAGGUUGAGAGUUUUGGAAUUGAUUCCAUGCUAAAUGUCAGUUACCAGUUUGGAUUGAUGAAAGUGAUUGGAAUUCUCGGGUGCCAA`, “RBNS enrichment (R)” read 5.13.
For `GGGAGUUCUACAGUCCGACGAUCUGAAUAACUUCCCAGACACUUAUCUCCAGGGCAGGGUGCCUUCCAGUAGCCAAGGGAAGCCUCCAGAGAGCACAGAUGUGAACCCUCAGCAGCAGGCAUCACCCCCCAGUUGGAAUUCUCGGGUGCCAA`, “RBNS enrichment (R)” read 0.501.
For `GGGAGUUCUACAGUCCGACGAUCUUUUUAAACAAGAAAAGCUGUGCUCUUUUAUGUGAUGCCUUUUUUAUUUAUUCAGGCUAUACCUACAAUAUGUGAAUCAAACUGUUUAAUGAAUCCUGGGACAUACUGAUUGGAAUUCUCGGGUGCCAA`, “RBNS enrichment (R)” read 0.409.
